Published values of several laboratories.
Numbered parts are unrelated; each lists some results of a single study.

Sample 1
Target: Prothrombin, mature alpha-thrombin (F2, Homo sapiens, UniProt P00734)
Technique: aptamer microarray, sandwich
Molecule type: DNA with 2'F-ANA
Sample: in vitro
Tested at: 200 nM
Notes: whole 15-mer aptamer, many near background
Together with: Cy3 exosite-II aptamer, 400 nM
Reading: higher = stronger binding
Sequence: GGTTGGTGTGGTTGG
| Modification | mean fluorescence intensity |
| --- | --- |
| 2'F-ANA at 2 4 7 8 9 11 12 14 15 | 126 a.u. |
| 2'F-ANA at 1 7 11 13 15 | 144 a.u. |
| 2'F-ANA at 1 2 6 7 11 12 14 | 59.6 a.u. |
| 2'F-ANA at 5 10 11 15 | 47.1 a.u. |
| 2'F-ANA at 1 3 5 6 7 8 10 14 | 61.4 a.u. |
| 2'F-ANA at 1 6 7 8 10 13 14 | 107 a.u. |
| 2'F-ANA at 2 3 4 5 7 8 10 11 14 | 48.6 a.u. |
| 2'F-ANA at 1 4 6 8 9 11 14 | 50 a.u. |
| 2'F-ANA at 3 8 9 11 12 14 | 659 a.u. |
| 2'F-ANA at 1 2 3 8 11 14 15 | 68.6 a.u. |
| 2'F-ANA at 1 4 8 10 12 | 68 a.u. |
| 2'F-ANA at 1 2 4 6 10 12 13 15 | 53 a.u. |
| 2'F-ANA at 1 4 7 8 9 10 12 15 | 62.4 a.u. |
| 2'F-ANA at 1 3 4 5 6 9 10 11 | 46.6 a.u. |
| 2'F-ANA at 4 5 7 8 9 11 13 14 15 | 47.7 a.u. |
| 2'F-ANA at 1 3 5 6 7 10 11 14 15 | 68.4 a.u. |
| 2'F-ANA at 1 5 6 7 8 9 15 | 89.6 a.u. |
| 2'F-ANA at 5 9 12 13 15 | 77.8 a.u. |

Sample 2
Target: Histone acetyltransferase KAT6A, winged helix 2, GST fusion (KAT6A, Homo sapiens, UniProt Q92794, residues 85-181)
Technique: protein binding microarray
Molecule type: double-stranded DNA, one strand shown
Sample: in vitro
Tested at: not given
Notes: 8-mer, flanks averaged, mean of 2 arrays, mostly near background
Reference: not given
Reading: higher = stronger binding
Construct (chain): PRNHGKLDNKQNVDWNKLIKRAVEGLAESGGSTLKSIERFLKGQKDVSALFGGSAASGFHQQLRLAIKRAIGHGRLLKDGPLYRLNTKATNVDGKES
| Sequence | E-score |
| --- | --- |
| TCGCAAGA | -0.117 |
| GTCGGAAA | 0.163 |
| CGGCGAGC | 0.226 |
| AAACGGCC | 0.0859 |
| TACCGTGA | -0.123 |
| GCGGCCCA | 0.111 |
| CTCACGAG | 0.0885 |
| CAGGGTGG | 0.0264 |
| ATAGTGAG | -0.185 |
| CGAAGGCC | 0.271 |
| ATAGCAGA | 0.0787 |
| GCCCTGTA | -0.145 |
| ATAGTTCC | -0.00271 |
| CGCTAGCG | 0.171 |
| ACGTCCTA | -0.208 |
| CGAACTAC | -0.0583 |
| CAACTCCA | -0.187 |
| AAACTTCT | 0.208 |
| CAGCTAGC | -0.178 |
| CTAGCCAG | -0.091 |
| AGTACTGG | -0.115 |
| CCAGAGCC | 0.0447 |

Sample 3
Target: RNA binding protein fox-1 homolog 2, RRM domain, GST-SBP tag (RBFOX2, Homo sapiens, UniProt O43251-10, residues 100-194)
Technique: RNA Bind-n-Seq
Molecule type: RNA
Sample: in vitro
Tested at: 365 nM
Notes: natural RNA segment, single round, ends assumed
Reference: no-protein control
Reading: higher = stronger binding
Shared flanks, not repeated: GGGAGUUCUACAGUCCGACGAUC … UGGAAUUCUCGGGUGCCAA
Residues (chain): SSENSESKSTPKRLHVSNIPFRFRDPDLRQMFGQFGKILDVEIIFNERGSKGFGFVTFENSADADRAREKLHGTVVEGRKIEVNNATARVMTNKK
| Sequence | RBNS enrichment (R) |
| --- | --- |
| AGAGCAUACUUAUUGGGCUGUGAAGGCAUACGGAUGUACAUGUUUUAGAGCUUAUCUCAGAUUUAAAUAGCCAAAGGAAGACCUCAUUGCCUUCCAGGUGAAGGUGCAAA | 0.674 |
| CAUUUGCCUCUUCGUUUUGACCAAGCACAAAAGAGAUAUUCCCUAGAAGUGUCACACGGAGGCUUCUGUGCCAAAGACUGCCUUGUAGAGGUCUCAUCACCUCACACUUC | 1.64 |
| CUUGUGACCUCUGUCCACAGUCAUUUGAAGGAAGGAUUUCCUUUGGUUUUAGCUAUGCUUAUGAAAUUGAGAAACAAUUGCAAUGUUAAGAGUUUAUGUGAAGUAUACAU | 1.41 |
| UAAGCUGAACCACCAACAGAGAAAAGCAGGCCUUUGCAGAUAUGAUGGAAUGCAUCCCACCUUGCCAAAGCACUUACACCAGUUUGACUGUGCUAGCUAAAAGACAAAUU | 1.36 |
| AUGUGUCAAAAAUUAUUUCACUUGUAUGUGACUAUUAUCUUAACUUGUAACAAUUUAUGUUUUACAGUUCCUUUUACAAAGUGUAUUUUUACUCCAGUGUGUCUUGGCUU | 0.34 |
| CCCUUCCAGAGGAAUAAGUUUGUUCCCUGACCACACUGGGGGACCCAGACUUCAACCCCACAGAGUCCUCUCUUACCACCCCCAUAUGCUUCGCCCCACUGCAUAGCUGU | 0.47 |
| ACAGAGUGAAGCCCCUGCCCUGGACCCCUGCUCCCUUCUACCCUUGAGGGCCACCAAUGGAAGAGCCCGCCCUUCAUUCUGCAGCUCCUGCGGCCAGGCUGAGCUCUGCC | 0.47 |
| AAGACAAAUACCUUGGCUCGGGAGGAGUGGGAACAGGGAGAGACAAAAACCACCACUUCCUGGGGAGACGUGGAUACCGUCCUCCUUGCCACCAUGGCCAGUAUGUGCAG | 0.411 |

Sample 4
Target: Interferon regulatory factor 7, full length, phosphomimetic (IRF7, Homo sapiens, UniProt Q92985, residues 1-503, S471D/S472D/S475D/S476D/S477D/S483D/S484D/S487D)
Technique: protein-binding microarray
Molecule type: double-stranded DNA, one strand shown
Sample: in vitro
Tested at: 2200 nM top
Notes: 60-bp whole probe
Together with: salmon DNA 0.4 mg/ml
Reference: random background probes
Reading: higher = stronger binding
Shared flanks, not repeated: GCCTAGCAC … GTCTTGATTCGCTTGACGCTGCTG
Target sequence (chain): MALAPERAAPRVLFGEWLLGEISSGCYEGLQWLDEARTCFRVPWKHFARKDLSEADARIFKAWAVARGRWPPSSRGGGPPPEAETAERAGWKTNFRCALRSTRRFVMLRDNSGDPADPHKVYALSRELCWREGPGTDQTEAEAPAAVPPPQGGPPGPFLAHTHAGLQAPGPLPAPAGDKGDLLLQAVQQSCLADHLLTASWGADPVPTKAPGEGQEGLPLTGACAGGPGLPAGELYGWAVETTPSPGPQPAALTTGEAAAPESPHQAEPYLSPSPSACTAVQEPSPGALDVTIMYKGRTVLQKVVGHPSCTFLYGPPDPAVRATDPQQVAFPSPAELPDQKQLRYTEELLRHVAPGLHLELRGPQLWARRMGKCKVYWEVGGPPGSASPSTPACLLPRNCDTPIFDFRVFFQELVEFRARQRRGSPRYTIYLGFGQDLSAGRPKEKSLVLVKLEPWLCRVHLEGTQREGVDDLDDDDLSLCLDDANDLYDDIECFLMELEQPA
| Sequence | fitted relative affinity |
| --- | --- |
| GACGGTCGCGGTTTCGGGACGTGCTAG | 2.76 z-score |
| GACGGTATCCTTTTCCCGACGTGCTAG | 1.43 z-score |
| TTAGAACTGCTTTTCCTTTAGTGCTAG | 1.53 z-score |
| GACGGTCTCCTACTGCTGTCGTGCTAG | 0.914 z-score |
| GACGGACTGGGTCTCGGGTCGTGCTAG | -0.537 z-score |
| TTAGGTCTCGGACTTGGTTAGTGCTAG | -0.052 z-score |
| TTAGGTATCGACACTGGGTCAGTGCTA | -0.252 z-score |
| GACGAACTGACTCTCGAGACGTGCTAG | 0.146 z-score |
| GACGATATCGGGTACCGAGACGTGCTA | -0.294 z-score |
| GAAGATATCAGTTTCGAGACGTGCTAG | 3.6 z-score |
| GACGGTAACCTTTTCCTGACGTGCTAG | 0.706 z-score |
| TTAGGTATCGGTTTCCGTTAGTGCTAG | 3.7 z-score |
| TTTGGTTTCCTTCTCCTTTAGTGCTAG | 3.98 z-score |
| TTAGATTTCGGGTTTCGATCAGTGCTA | 4.85 z-score |
| TTAGGTCTCGGACTGGGTAAGTGCTAG | -0.296 z-score |
| GACGGTTCCCTTTTCCTGTCGTGCTAG | 3.29 z-score |
| TTAGGACTGCTACGGCTTTAGTGCTAG | -0.374 z-score |
| ATGATGTGTCAAAAATTGCAGTGCTAG | -0.227 z-score |
| GACGGTATCGACACAGGGGACGTGCTA | -0.266 z-score |

Some of these lines once more (sample 2):
| Sequence | E-score |
| --- | --- |
| ATAGTGAG | -0.185 |
| CGAAGGCC | 0.271 |
| ATAGCAGA | 0.0787 |
| GCCCTGTA | -0.145 |
| ATAGTTCC | -0.00271 |
| CGCTAGCG | 0.171 |
| ACGTCCTA | -0.208 |
| CGAACTAC | -0.0583 |
| CAACTCCA | -0.187 |
| AAACTTCT | 0.208 |
| CAGCTAGC | -0.178 |
